Assay results collected from several papers.
Parts stem from different laboratories: compare values within a part only. Positions count from the first letter of the parent shown.

Set 1
Target: Interferon regulatory factor 3, full length, phosphomimetic (IRF3, Homo sapiens, UniProt Q14653, residues 1-427, S386D/S396D/S398D/S402D/T404D/S405D)
Method: protein-binding microarray
Molecule type: double-stranded DNA, one strand shown
Medium: in vitro
Tested at: 2540 nM top
Setting: 60-bp whole probe
With: salmon DNA 0.4 mg/ml
Baseline: random background probes
Direction: higher = stronger binding
All sequences stand within: GCCTAGCAC … GTCTTGATTCGCTTGACGCTGCTG
Residues (chain): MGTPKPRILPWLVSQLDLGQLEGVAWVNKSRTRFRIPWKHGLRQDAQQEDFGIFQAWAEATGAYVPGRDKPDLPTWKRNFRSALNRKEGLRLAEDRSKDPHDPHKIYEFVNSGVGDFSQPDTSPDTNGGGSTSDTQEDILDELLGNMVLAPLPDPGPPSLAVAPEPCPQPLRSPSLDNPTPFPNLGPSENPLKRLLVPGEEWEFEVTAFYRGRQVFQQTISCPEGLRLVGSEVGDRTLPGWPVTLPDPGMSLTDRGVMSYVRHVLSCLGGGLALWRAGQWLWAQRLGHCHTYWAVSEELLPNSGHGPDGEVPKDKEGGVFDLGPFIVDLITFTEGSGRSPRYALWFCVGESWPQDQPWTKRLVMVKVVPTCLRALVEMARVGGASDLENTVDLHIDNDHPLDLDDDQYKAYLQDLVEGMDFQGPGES
Oligonucleotide | fitted relative affinity [z-score]
GACGGTATCCTACTGCGGACGTGCTAG | 2.9
TTAGATCTCACTTTCGATTAGTGCTAG | 2.55
TTAGATAGCAGTATCGATTAGTGCTAG | 0.509
TCAGATATCAGTATCGATTAGTGCTAG | 2.29
TTCATTTTTTTTTTCATCATGTGCTAG | 1.23
GAACATACTGATTTCCACTTGTGCTAG | 0.952
TTTGGTATCGGTATCGGTTAGTGCTAG | 5.74
TCATTTCTCCTTTCGGAACTGTGCTAG | 4.6
TCAACTCTGTCCCTCTGACTGTGCTAG | 0.0123
TCAAAAATCAAGTCTGGGACTGTGCTA | -0.691
TCAATTCTCAGCCCTGCGACTGTGCTA | 0.311
CCAGATTTCCCCACCATCTAGTGCTAG | 1.02
GACGGTCTAGGACTGGGGACGTGCTAG | -0.547
TTAGATCTAAGACTGGATTAGTGCTAG | -0.343

Set 2
Target: Histone acetyltransferase KAT6A, winged helix 1, GST fusion (KAT6A, Homo sapiens, UniProt Q92794, residues 1-85)
Method: protein binding microarray
Molecule type: double-stranded DNA, one strand shown
Medium: in vitro
Tested at: not given
Setting: 8-mer, flanks averaged, mean of 2 arrays, mostly near background
Baseline: not given
Direction: higher = stronger binding
Target sequence (chain): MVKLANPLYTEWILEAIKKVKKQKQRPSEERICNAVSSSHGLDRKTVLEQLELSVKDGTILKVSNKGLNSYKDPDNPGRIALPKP
Oligonucleotide | E-score
GCTTTCGA | -0.0916
CCCAATGC | -0.191
GCTCTTAA | -0.0907
ACTATTCC | 0.146
GTCCGTTA | 0.114
CTCAAGAA | -0.172
CTCCACTC | -0.17
GTACCTAA | -0.079
GAATTAAC | -0.156
GAGGCAGC | 0.00679
CCGTATCC | 0.3
ACGTCGAA | -0.15
CAGGTCAC | -0.116
ACAGGATG | -0.144
CATAGCTC | -0.103
CCAGAACC | -0.151
ATGCCATC | -0.117
CAATAGTG | 0.034
GGCTCTGA | -0.24
CTCCTAGA | -0.134
GACCCGCA | 0.289
AGTGGACC | -0.103
GAATGTTA | -0.0474
CCCGTGTC | 0.271
AAATAGTT | -0.0487

Set 3
Target: Hepatocyte nuclear factor 3-alpha (Foxa1, Mus musculus, UniProt P35582, residues 1-468, full length assumed)
Method: EMSA with sequencing
Molecule type: double-stranded DNA, one strand shown
Medium: in vitro
Tested at: 10 and 20 nM
Setting: whole designed probe, mean of two concentrations, ends assumed
Baseline: negative control set to 0
Direction: higher = stronger binding
Construct (chain): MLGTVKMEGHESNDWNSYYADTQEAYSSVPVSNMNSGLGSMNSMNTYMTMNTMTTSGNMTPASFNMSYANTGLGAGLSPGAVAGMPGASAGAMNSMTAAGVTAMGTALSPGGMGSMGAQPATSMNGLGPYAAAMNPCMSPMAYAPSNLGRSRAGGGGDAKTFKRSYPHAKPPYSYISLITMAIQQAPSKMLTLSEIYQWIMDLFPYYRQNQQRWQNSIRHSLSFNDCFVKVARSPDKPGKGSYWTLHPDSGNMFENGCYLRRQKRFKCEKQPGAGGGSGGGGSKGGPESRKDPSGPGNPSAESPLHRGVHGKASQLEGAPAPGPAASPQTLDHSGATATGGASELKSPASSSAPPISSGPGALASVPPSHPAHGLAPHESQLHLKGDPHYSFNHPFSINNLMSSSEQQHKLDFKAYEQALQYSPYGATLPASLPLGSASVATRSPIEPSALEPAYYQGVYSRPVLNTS
Oligonucleotide | normalised bound fraction
GTGAGCGGTGCCCATTGATGGGGAACGGGCAGCATGTTTAATTAATCTATTATCTTCTGTATTCCTTTGTGTCTGTCCCTGGGGAACTCTCTGGAAATGATCAGGCTTGCTAGTGCCTGTGTTTACCTAACTGAGTCAGAGCTTTGTTGAAGAAGAAATAAAGCCCAGAACTCCAGCAGCTAAGAGTTTTATCTCCTAACAACTGTCTGCCCCAAGCTGTTTCACTGGGATCGTGGGGAC | 0.355 ratio
GTGAGCGGTGCCCATTGATGGGGAACAAGAGGGAGTGAAGGTCTCTGAAAATGTAGGAGTCCCTTTAGTAGATGGGGAGAAATGGGTTAAAGATTTTTAAAAATTGCACAGACAGTAGTAGATTGCTCTTTGGTTACAGGTGAATTATCTCTATCCTAGTTAGGAGTGGAGGACTGAAGTATGTCTCAATGCACAAACTAAGGCTGTGCAGGCTTGGAATTTCACTGGGATCGTGGGGAC | -0.0971 ratio
GTGAGCGGTGCCCATTGATGGGGAACATCTTCCCCCTCTTCCTTGCCCCACCAGCTCACCTTCCCGGGTCAAAGTAAACAAGTGTTTACTTTGAAGCCGGCATTCGTTAACCCTCTTCTGGCGCAAACTGCCAGAGCAAACAGATGAATCATGGTCCTTTGGCGACGCCAGGCTCCGGGAGAGCAAAGCACCGTGTCAGGGCCATGATCCGGGGTGGCCTTTCACTGGGATCGTGGGGAC | 0.463 ratio
GTGAGCGGTGCCCATTGATGGGGAACATCTTCCCCCTCTTCCTTGCCCCACCAGCTCACCTTCCCGGGTTATTTGCAGATAGGAAAATAAATAAAGCCGGATGAATCATGCCCTCTTCACGCGCATACTGCTGTTTGCTCTGGATCTAACATGGTCCTTTGGCGACGCCAGGCTCCGGGAGAGCAAAGCACCGTGTCAGGGCCATGATCCGGGGTGGCCTTTCACTGGGATCGTGGGGAC | 0.361 ratio

Set 4
Target: Phosphate system positive regulatory protein PHO4, full length, GST-tagged (PHO4, Saccharomyces cerevisiae, UniProt P07270, residues 1-312)
Method: competition protein-binding microarray
Molecule type: double-stranded DNA, one strand shown
Medium: in vitro
Tested at: 2 µM
Setting: whole 60-bp probe, lowest competitor level
With: Cbf1 competitor, 0.05 µM
Direction: higher = stronger binding
All sequences stand within: … GTCTTGATTCGCTTGACGCTGCTG
Construct (chain): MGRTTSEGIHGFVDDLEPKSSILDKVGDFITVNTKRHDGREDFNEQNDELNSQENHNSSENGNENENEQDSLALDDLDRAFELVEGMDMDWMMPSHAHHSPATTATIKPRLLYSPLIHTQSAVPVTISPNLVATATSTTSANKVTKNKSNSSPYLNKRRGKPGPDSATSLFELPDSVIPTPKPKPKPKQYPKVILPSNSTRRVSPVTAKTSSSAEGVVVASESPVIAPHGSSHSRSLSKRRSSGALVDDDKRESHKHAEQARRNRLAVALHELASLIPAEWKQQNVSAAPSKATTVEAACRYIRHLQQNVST
Oligonucleotide | fluorescence intensity [a.u.]
ATATCCAACATTTGGCCCGTGATGGCTTAAGCGACT | 5870
CTTTCCCGATCTTGGCGGGTGGGTGTAGCACATTTG | 5180
AAGATCTAGGCCCATCACGCAGGCAGTTACTGAGAA | 4810
CAATCTGATGATGTGGTCGTGGGTAGGCTTAGCCAA | 6870
TGCGCAACAACTTGCATTGTGGGTGTATGTCTAGAA | 6090
GCTTGTTCATACAAGCTCGTGTAGCTAAATACGTAC | 8640
TTCTGTATTCCGGCGCAGGTGATGAACTTGATTACG | 5610
ATGTCCATTCCCTGGCACGTGATGGCGAGTACTTCC | 19100
GGGATGGTGATGGTATACGTGGTTACGTCTTTTACA | 6240
GGTTGCGAGAGAAGAGGCGTGTCGGAAAAAAAAACG | 8500
CCGGGAAATCGCTGGCACGCACAGCATATAGAGTAG | 12000
AATAGGCGCCAAGTTTCCGTGGGTAACTATGACTTT | 3430
GTCTTGTCTCATTGTCACACCACTTTCCCCACTTCA | 5190
CTAACGAAGGTTTGTCACGGCACTTACAAGCCAAGT | 3870
CTTCTGTAAATTTGGAAGGTGGGTGGACGCGCCCCG | 4320
TGCGCAACAACTTGATTGGTGGGTGTATGTCTAGAA | 4560

Set 5
Target: ABI1, truncated, D143A, DHFR fusion (Arabidopsis thaliana)
Method: DHFR PCA, deep sequencing
Medium: yeast
Setting: methotrexate growth selection, single substitutions
With: (+)-ABA 0.39 µM
Baseline: wild-type fitted maximum
Direction: higher = stronger binding
Starting sequence: PYL1, truncated, DHFR fusion (Arabidopsis thaliana); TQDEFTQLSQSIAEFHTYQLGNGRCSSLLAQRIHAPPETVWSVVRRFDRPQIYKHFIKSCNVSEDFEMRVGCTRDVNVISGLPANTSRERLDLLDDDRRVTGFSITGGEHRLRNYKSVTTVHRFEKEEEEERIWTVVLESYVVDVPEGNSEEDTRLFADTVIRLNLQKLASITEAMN
Variant | relative binding score
N177V | 59.7%
I172A | 1.36%
E4K | 12.3%
L164N | -17.6%
T119P | -10%
V136W | 5.01%
E130M | 32.2%
D75S | 39.2%
R74P | -8.19%
K116N | -9.26%
F124H | 6.56%
D159I | -22.1%
R88M | 23.7%
S150T | 64.1%
R24M | 30.8%
E14Q | 26.7%
M68D | -0.469%
Q51S | -2.08%
P83C | 2.01%
E67Q | 49.9%
N77E | 72.5%

Repeated from above (set 4):
Oligonucleotide | fluorescence intensity [a.u.]
TTCTGTATTCCGGCGCAGGTGATGAACTTGATTACG | 5610
ATGTCCATTCCCTGGCACGTGATGGCGAGTACTTCC | 19100
GGGATGGTGATGGTATACGTGGTTACGTCTTTTACA | 6240
GGTTGCGAGAGAAGAGGCGTGTCGGAAAAAAAAACG | 8500
CCGGGAAATCGCTGGCACGCACAGCATATAGAGTAG | 12000
AATAGGCGCCAAGTTTCCGTGGGTAACTATGACTTT | 3430
GTCTTGTCTCATTGTCACACCACTTTCCCCACTTCA | 5190
CTAACGAAGGTTTGTCACGGCACTTACAAGCCAAGT | 3870
